{"data": "Results from different studies", "note": "Parts stem from different laboratories: compare values within a part only.", "sequence of UniProt Q07912 (whole entry, looked up)": "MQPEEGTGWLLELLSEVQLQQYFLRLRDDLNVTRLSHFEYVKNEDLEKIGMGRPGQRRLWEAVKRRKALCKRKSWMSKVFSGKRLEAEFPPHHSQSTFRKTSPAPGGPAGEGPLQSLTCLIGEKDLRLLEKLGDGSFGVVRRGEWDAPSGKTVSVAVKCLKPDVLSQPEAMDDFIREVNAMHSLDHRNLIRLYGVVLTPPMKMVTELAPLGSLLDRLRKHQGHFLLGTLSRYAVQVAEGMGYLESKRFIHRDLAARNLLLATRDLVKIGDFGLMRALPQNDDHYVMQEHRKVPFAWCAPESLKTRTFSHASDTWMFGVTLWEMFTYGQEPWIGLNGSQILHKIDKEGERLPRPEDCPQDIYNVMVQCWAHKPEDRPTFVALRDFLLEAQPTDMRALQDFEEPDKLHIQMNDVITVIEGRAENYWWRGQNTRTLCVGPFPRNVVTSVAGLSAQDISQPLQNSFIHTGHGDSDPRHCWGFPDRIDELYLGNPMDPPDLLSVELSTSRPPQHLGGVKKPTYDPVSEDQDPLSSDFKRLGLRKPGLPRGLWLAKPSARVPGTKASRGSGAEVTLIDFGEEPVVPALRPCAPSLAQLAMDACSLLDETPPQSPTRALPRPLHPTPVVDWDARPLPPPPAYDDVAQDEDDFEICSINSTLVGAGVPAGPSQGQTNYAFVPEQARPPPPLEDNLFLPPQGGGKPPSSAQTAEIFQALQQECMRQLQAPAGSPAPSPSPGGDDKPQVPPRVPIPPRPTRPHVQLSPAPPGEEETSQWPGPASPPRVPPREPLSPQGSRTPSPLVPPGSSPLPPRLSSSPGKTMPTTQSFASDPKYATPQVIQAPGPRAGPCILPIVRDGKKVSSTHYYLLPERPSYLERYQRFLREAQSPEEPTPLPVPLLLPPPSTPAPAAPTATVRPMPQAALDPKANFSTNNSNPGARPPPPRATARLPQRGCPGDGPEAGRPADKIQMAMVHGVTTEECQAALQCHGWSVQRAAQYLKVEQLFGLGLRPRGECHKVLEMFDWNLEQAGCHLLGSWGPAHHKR", "sequence of UniProt P10721 (whole entry, unmodified, looked up)": "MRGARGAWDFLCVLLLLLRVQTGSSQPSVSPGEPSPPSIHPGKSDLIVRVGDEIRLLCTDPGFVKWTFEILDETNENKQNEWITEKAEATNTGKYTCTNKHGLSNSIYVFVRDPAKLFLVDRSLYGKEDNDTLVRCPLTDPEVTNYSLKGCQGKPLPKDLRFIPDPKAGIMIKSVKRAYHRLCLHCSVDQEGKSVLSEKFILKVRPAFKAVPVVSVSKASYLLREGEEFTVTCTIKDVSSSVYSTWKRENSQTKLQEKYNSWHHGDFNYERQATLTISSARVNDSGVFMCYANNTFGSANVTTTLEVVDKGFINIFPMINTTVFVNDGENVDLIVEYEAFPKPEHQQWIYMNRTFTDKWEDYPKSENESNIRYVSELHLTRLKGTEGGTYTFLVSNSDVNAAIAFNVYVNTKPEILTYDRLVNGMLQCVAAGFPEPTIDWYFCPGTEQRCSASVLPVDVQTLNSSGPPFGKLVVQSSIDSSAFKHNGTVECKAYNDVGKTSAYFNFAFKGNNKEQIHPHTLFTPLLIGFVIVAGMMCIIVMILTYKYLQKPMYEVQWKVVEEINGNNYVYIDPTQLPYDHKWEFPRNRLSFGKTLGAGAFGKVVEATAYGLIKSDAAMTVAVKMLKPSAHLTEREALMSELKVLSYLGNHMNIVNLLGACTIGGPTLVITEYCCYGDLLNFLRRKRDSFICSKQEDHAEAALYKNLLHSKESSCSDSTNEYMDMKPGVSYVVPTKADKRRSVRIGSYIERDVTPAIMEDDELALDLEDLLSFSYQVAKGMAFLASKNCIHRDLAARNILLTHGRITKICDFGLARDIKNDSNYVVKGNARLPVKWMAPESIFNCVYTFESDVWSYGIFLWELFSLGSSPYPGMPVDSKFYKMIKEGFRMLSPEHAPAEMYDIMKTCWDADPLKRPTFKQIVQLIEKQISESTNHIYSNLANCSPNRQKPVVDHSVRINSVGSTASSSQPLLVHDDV", "sequence of UniProt O14578 (whole entry, looked up)": "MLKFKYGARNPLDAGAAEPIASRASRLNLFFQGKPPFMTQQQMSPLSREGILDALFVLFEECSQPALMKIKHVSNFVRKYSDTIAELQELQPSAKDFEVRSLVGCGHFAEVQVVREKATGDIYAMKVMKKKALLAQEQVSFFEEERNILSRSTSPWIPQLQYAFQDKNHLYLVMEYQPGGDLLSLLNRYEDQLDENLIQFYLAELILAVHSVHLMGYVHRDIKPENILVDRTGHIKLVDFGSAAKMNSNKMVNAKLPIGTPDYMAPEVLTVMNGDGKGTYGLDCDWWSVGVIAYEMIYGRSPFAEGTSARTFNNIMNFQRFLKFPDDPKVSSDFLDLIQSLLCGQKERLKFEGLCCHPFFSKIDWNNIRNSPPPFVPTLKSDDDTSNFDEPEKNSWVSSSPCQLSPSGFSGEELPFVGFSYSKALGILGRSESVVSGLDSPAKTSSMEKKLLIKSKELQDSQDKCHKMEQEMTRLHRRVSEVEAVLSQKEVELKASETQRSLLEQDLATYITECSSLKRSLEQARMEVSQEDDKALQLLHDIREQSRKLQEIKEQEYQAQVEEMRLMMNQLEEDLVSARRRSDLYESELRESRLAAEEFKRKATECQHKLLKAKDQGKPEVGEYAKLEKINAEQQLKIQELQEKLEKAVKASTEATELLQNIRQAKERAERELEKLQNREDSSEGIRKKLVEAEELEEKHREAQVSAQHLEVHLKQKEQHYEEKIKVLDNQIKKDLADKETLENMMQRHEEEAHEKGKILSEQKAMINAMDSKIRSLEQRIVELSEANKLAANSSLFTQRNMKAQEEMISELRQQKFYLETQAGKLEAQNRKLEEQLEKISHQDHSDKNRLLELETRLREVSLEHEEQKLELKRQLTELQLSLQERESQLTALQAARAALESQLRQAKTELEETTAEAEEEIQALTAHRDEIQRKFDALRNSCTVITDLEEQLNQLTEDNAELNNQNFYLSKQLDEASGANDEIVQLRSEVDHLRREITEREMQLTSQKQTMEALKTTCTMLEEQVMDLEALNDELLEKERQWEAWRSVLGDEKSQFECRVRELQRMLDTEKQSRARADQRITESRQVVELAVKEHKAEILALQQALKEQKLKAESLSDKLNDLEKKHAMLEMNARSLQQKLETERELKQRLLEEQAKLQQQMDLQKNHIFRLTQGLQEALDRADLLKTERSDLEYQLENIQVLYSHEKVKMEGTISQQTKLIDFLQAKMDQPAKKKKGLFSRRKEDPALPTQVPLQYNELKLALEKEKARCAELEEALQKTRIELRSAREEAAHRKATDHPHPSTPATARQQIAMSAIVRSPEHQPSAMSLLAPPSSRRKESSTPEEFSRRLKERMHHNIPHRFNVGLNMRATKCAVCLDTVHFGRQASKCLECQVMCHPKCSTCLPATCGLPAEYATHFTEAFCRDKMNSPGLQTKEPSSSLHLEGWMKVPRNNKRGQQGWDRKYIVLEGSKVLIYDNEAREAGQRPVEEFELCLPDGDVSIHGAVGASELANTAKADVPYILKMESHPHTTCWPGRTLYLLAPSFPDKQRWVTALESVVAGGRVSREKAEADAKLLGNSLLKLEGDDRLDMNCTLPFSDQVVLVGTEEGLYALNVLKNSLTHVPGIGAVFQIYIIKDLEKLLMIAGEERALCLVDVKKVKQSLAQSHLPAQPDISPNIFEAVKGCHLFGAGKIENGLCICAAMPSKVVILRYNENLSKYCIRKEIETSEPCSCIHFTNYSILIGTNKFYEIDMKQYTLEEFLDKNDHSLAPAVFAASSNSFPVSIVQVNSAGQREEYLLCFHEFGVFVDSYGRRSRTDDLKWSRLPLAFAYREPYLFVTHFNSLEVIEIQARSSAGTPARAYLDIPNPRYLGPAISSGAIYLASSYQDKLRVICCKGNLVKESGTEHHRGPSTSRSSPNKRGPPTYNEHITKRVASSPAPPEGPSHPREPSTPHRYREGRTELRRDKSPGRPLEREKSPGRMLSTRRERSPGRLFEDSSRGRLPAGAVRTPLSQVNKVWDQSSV"}
{"data": "Set 1", "Compound": "Cc1cc(NC(=O)c2cccc(S(F)(F)(F)(F)F)c2)cc(-n2ccn3nc(-c4cccnc4)cc23)c1", "effect on": "cell-free assay", "technique": "competition with immobilised ligand", "tested at": "1 µM"}
{"target": "TNK2 (Homo sapiens, UniProt Q07912)", "remaining binding": "100%"}
{"target": "KIT (Homo sapiens, UniProt P10721, T670I/V559D)", "remaining binding": "91.3%"}
{"target": "CIT (Homo sapiens, UniProt O14578)", "remaining binding": "60.7%"}
{"target": "TNK1 (Homo sapiens, UniProt Q13470)", "remaining binding": "95%"}
{"data": "Set 2", "target": "ATP-dependent RNA helicase DDX3X, helicase core (DDX3X, Homo sapiens, UniProt O00571, residues 132-607)", "technique": "RNA Bind-n-Seq", "molecule type": "RNA", "sample": "in vitro", "tested at": "90 pmol", "notes": "4-mer, random 30-nt RNA, single round", "added": "3 µM iPr-DMDA-PatA, 2 mM ADP, 2 mM phosphate", "baseline": "input library", "reading": "higher = stronger binding", "sequence of UniProt O00571 (132-607, looked up)": "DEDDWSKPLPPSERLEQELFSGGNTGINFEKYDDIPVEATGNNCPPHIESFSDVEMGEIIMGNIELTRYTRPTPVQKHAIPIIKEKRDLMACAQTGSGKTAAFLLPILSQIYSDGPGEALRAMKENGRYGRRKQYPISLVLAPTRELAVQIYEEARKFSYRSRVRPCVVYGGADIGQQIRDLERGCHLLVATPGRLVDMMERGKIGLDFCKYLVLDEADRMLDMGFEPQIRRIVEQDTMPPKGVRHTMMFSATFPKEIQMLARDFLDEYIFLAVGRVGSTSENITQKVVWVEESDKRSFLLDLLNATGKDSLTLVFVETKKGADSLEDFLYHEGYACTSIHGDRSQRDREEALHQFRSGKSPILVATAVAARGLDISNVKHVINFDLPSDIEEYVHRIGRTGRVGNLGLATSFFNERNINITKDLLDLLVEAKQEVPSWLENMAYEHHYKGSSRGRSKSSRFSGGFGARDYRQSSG"}
{"Strand": "ACGA", "4-mer enrichment [fold]": 1.16}
{"Strand": "AUCG", "4-mer enrichment [fold]": 0.976}
{"Strand": "CACU", "4-mer enrichment [fold]": 0.953}
{"Strand": "GUUU", "4-mer enrichment [fold]": 1}
{"Strand": "CCUU", "4-mer enrichment [fold]": 0.854}
{"Strand": "CGGU", "4-mer enrichment [fold]": 0.707}
{"Strand": "UUAG", "4-mer enrichment [fold]": 1.06}
{"Strand": "GAGG", "4-mer enrichment [fold]": 1.07}
{"data": "Set 3", "target": "Epidermal growth factor receptor (EGFR, Homo sapiens, UniProt P00533)", "effect on": "enzyme activity", "action": "inhibitor", "tested at": "0.5 µM", "baseline": "control"}
{"SMILES": "O=C1NC(=O)c2c1c1c3ccccc3[nH]c1n1cncc21", "remaining activity": "92.7%"}
{"SMILES": "NC(=O)c1cccc(-c2cc(Nc3ccc(OC(F)(F)F)cc3)ncn2)c1", "remaining activity": "96.6%"}
{"SMILES": "O=C1c2ccccc2-c2nc3nnnn3nc21", "remaining activity": "37%"}
{"SMILES": "CNc1cc2c(Nc3cccc(Br)c3)ncnc2cn1", "remaining activity": "1.99%"}
{"SMILES": "O=Nc1c(-c2c(O)[nH]c3ccccc23)[nH]c2ccccc12", "remaining activity": "97.1%"}
{"SMILES": "COc1cccc(-c2cc(=O)c3ccccc3o2)c1N", "remaining activity": "81.2%"}
{"SMILES": "Cc1ccc(S(=O)(=O)/C=C/C#N)cc1", "remaining activity": "97.5%"}
{"SMILES": "CC(C)(C)c1nc2c3cc[nH]c(=O)c3c3cc(F)ccc3c2[nH]1", "remaining activity": "94.8%"}
{"SMILES": "CN1CCN(c2ccc3nc(-c4c(N)c5c(F)cccc5[nH]c4=O)[nH]c3c2)CC1", "remaining activity": "97.2%"}
{"SMILES": "O=C(O)/C=C/c1cc(Br)c(Br)c(Br)c1Br", "remaining activity": "98.4%"}
{"SMILES": "CN(C)S(=O)(=O)c1ccc2c(c1)/C(=C/c1cc3c([nH]1)CCCC3)C(=O)N2", "remaining activity": "93.4%"}
{"SMILES": "CC(C)n1cnc2c(Nc3cccc(Cl)c3)nc(NCCO)nc21", "remaining activity": "91.5%"}
{"SMILES": "CCCNC(=O)Nc1ccc(Oc2ncnc3cc(OC)c(OC)cc23)cc1Cl", "remaining activity": "88.1%"}
{"SMILES": "O=C1NC(=O)c2c1c1c3ccccc3[nH]c1c1[nH]c3cc(Br)ccc3c21", "remaining activity": "100%"}
{"SMILES": "c1cc(-c2cnn3cc(-c4ccc(OCCN5CCCCC5)cc4)cnc23)ccn1", "remaining activity": "100%"}
{"data": "Set 4", "target": "RING finger protein unkempt homolog, zinc fingers 1-6, GST-SBP tag (UNK, Homo sapiens, UniProt Q9C0B0, residues 30-357)", "technique": "RNA Bind-n-Seq", "molecule type": "RNA", "sample": "in vitro", "tested at": "not given", "notes": "RNA with constant flanks, human and mouse sites, ends assumed", "baseline": "input RNA pool", "reading": "higher = stronger binding", "Construct (chain)": "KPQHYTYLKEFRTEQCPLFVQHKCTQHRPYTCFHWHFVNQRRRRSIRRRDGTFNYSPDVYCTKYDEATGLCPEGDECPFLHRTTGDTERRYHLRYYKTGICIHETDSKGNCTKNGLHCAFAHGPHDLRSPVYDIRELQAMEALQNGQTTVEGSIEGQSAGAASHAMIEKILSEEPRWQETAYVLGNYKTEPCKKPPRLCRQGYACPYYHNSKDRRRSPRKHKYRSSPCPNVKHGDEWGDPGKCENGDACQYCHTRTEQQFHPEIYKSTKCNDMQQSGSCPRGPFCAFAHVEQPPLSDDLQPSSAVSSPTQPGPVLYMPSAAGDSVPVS"}
{"Strand": "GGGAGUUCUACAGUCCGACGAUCAGGUUUCAUUUUAAAACAAAGUUUUCCAGUGUUAAUCUGAUCUUAUAACACCUCUCCCUGUCCUCUGUGGUUUUGUAGAGGUGGAUGAAGGUUGCUAGAGAUCAUGUCUAACAUGUUAAACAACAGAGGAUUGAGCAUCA", "bound/input enrichment": "0.216 ratio"}
{"Strand": "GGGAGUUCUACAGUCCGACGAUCAUGUCCAAGUCACUGAAAAACUUUAUCACCAUUAAAGAUGCCUUGAAGAAGCACUCAGCACGGCAGCUGCGACUGGCAUUCCUCAUGCACUCAUGGAAAGACACACUGGACUAUUCCAGCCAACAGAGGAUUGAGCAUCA", "bound/input enrichment": "0.0777 ratio"}
{"Strand": "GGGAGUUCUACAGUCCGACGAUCUACUUUUAUUCCAAGGGGGAGCUCAGGAGAUGGCAUUCCCAGAAAGUAUUUUAGUACAUCAAGCGACCAGAGCCAAAGCCUUAAAUCCAACCCACACACAACUGAAGAUCGCCUCCUCCCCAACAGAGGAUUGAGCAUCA", "bound/input enrichment": "0.463 ratio"}
{"Strand": "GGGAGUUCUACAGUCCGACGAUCGGAAGGCGCUGUUUGAAGCUUGUGGCUCUUUGAAGUCUGAAAGACAUCGGCAGAGGACCCUUUAGACGGCACAACUGUUACUCUAGGGAGUUGAUUUUUUUUUCUUAAGAGAUUUAAAAACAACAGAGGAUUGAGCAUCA", "bound/input enrichment": "1.37 ratio"}
{"Strand": "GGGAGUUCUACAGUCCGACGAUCGGUGCAAAAAGGCAGAAGGCCAGGUUGACAGUGUUUUGUCUUGUCCCUCCGUGUUUUCUAGAAUGUUUUACACCUGGCUGGUGAAUCUGCUGAGACCAGGUUUUCUGAGACUUGAUUAAACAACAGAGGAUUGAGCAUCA", "bound/input enrichment": "0.261 ratio"}
{"Strand": "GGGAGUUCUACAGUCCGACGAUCUCAGGGUGGAAGUCCAUGAUUCAGUCUCACCCUCAUUUAGUAGCAGAAGCCUUUCGAGCACUAGCAUCUGCACAGUGUCCACAGUUUGGCAUUCCACGCAAACGGCUAAAACAGUCCUGACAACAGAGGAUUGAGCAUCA", "bound/input enrichment": "0.0996 ratio"}
{"Strand": "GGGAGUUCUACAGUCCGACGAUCUCUUUUCAUCUAUCAGAAAGUGUUCUUUUGUGGAGAAAAAAGAAGAAAACUUUCUCACUUACUUAUUAAUUUCUCAUUUACUAAUAAAUUUCAAUAAACUUUCUUACUGAUGCAAACUAUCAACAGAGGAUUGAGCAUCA", "bound/input enrichment": "24.5 ratio"}
{"Strand": "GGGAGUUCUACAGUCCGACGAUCUUUUUAUGCGACCAUUGUCUCCGUGGUUGGGCUGCAUGUAGUUUUGGCAAUUUUUGUUUUUAUAGUAUGGAAGGAAGGUUUGCCACAGUGGCGGGAAAACAAAAAUGAUUAGGGCAGCAGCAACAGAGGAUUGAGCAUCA", "bound/input enrichment": "3.14 ratio"}
{"note": "Some of these lines once more (set 3):"}
{"SMILES": "O=Nc1c(-c2c(O)[nH]c3ccccc23)[nH]c2ccccc12", "remaining activity": "97.1%"}
{"SMILES": "O=C1c2ccccc2-c2nc3nnnn3nc21", "remaining activity": "37%"}
{"SMILES": "NC(=O)c1cccc(-c2cc(Nc3ccc(OC(F)(F)F)cc3)ncn2)c1", "remaining activity": "96.6%"}
{"SMILES": "O=C(O)/C=C/c1cc(Br)c(Br)c(Br)c1Br", "remaining activity": "98.4%"}
{"SMILES": "CCCNC(=O)Nc1ccc(Oc2ncnc3cc(OC)c(OC)cc23)cc1Cl", "remaining activity": "88.1%"}
